Measured values collected from several papers.
Each line is one published result; not all experiments were run side by side.

| Substance | cell line | test | system | conditions | inhibition |
| --- | --- | --- | --- | --- | --- |
| CCn1c(C)c(/N=N/c2ccc(Cl)cc2)s/c1=N/N=C(\C)c1ccccn1 | HEp-2 | cell growth or viability, SRB |  | 100 µg/mL, 48 h | 61.6% |
| Cc1cc(C)c(C=NNc2nc(-c3ccc(C#N)cc3)cs2)c(C)c1 | HCT-116 | colony formation |  | 10 µM, 24 h | 100% |
| COc1ccc2c(c1)CC[C@@H]1[C@@H]2CC[C@]2(C)[C@@H](NCCCCCCN3C(=O)C=CC3=O)CC[C@@H]12 | neonatal rat DRG neurons | bradykinin-evoked action potential firing, multielectrode array |  | 5 µM, 1 h, added: 1 µM bradykinin | 64.7% |
| N#Cc1ccc(-c2csc(NN=Cc3ccccc3F)n2)cc1 | HCT-116 | colony formation |  | 5 µM, 24 h | 5 to 50% |
| CCN1C(=O)CS/C1=N/N=C(\C)c1ccccn1 | HEp-2 | cell growth or viability, SRB |  | 100 µg/mL, 48 h | 73.2% |
| N#Cc1ccc(-c2csc(NN=Cc3sccc3Br)n2)cc1 | HCT-116 | colony formation |  | 10 µM, 24 h | 100% |
| CC12CC3CC(C)(C1)CC(c1cc(-c4ccc(/C=C/C(=O)O)cc4Cl)ccc1O)(C3)C2 | KG-1 | cell proliferation |  | 5 µM, 48 h | 0% |
| CCN1C(=O)/C(=C\c2ccc(F)cc2)S/C1=N/N=C(\C)c1ccccn1 | HEp-2 | cell growth or viability, SRB |  | 100 µg/mL, 48 h | 74% |
| O=C(O)/C=C/c1ccc(-c2ccc(F)c(C34CC5CC(CC(C5)C3)C4)c2)c(Cl)c1 | KG-1 | cell proliferation |  | 5 µM, 48 h | 0% |
| O=C(NC(=S)Nc1ccc(-c2nc3ccccc3o2)cc1)c1ccc2ccccc2c1 | SW-620 | colony formation |  | 25 µM, 3D culture | 65 to 70% |
| GRDGS | B16-F10 | cell spreading on fibronectin | peptide | concentration not given, 60 min, added: fibronectin 4 µg/mL coat | inactive |
| CCN1CCN(CC(=O)Nc2ccc(-c3cccc4c(=O)cc(N5CCOCC5)oc34)c3sc4ccccc4c23)CC1 | SW-620 | cell growth, SRB |  | 1 µM, 120 h | 55% |
| COc1ccc(/C=C2/S/C(=N/N=C(\C)c3ccccn3)NC2=O)cc1 | HEp-2 | cell growth or viability, SRB |  | 100 µg/mL, 48 h | 74.4% |

Some of these lines once more:
| Substance | cell line | test | system | conditions | inhibition |
| --- | --- | --- | --- | --- | --- |
| O=C(O)/C=C/c1ccc(-c2ccc(F)c(C34CC5CC(CC(C5)C3)C4)c2)c(Cl)c1 | KG-1 | cell proliferation |  | 5 µM, 48 h | 0% |
